{"data": "Measurements gathered from unrelated publications", "method": "steady-state kinetics", "B1": "HCT R356D (Coleus scutellarioides, UniProt E8ZAP2); chain MKIHVRDSTLVRPSAATPAVSLWNSNVDLVVPNFHTPSVYFYRPSGADNFFDTAVMKAALGRALVSFYPMAGRLKRDEDGRVEIDCNAEGVLFVEAESDGTVDDYGDFAPSLELRRLIPAVDYSQGISAYPLLVLQVTFFKCGGVSLGVGMQHHAADGFSGLHFINTWSDMARGLDITLPPFIDRTLLSARDPPQPQFKHVEYQPPPAMKTYEPAETVVSIFKLTKDQLTTLKAKSKEDGNTTTYSSYEMLSGHVWRCTCLARGLPEEQETKLYIATDGRSRLQPQLPPGYFGNVIFTATPLAVAGDLGSKPVWYAASKIHDALARMDNDYLRSALDFLELQPDLKALVRGAHTFDCPNLGITSWVRLPIHDADFGWGRPIFMGPGGIAYEGLSFVLPSPTNDGSLSVAISLQAEHMKLFEKLLYQI", "B2": "LYPLA2 (Homo sapiens, UniProt O95372); chain MCGNTMSVPLLTDAATVSGAERETAAVIFLHGLGDTGHSWADALSTIRLPHVKYICPHAPRIPVTLNMKMVMPSWFDLMGLSPDAPEDEAGIKKAAENIKALIEHEMKNGIPANRIVLGGFSQGGALSLYTALTCPHPLAGIVALSCWLPLHRAFPQAANGSAKDLAILQCHGELDPMVPVRFGALTAEKLRSVVTPARVQFKTYPGVMHSSCPQEMAAVKEFLEKLLPPV", "B3": "enzyme A178R/D177A/M179H/P184R (Levilactobacillus brevis, UniProt Q03Q85); chain MKVTVVGCTHAGTFAIKQILAEHPDAEVTVYERNDVISFLSCGIALYLGGKVADPQGLFYSSPEELQKLGANVQMNHNVLAIDPDQKTVTVEDLTNHAQTTESYDKLVMTSGSWPIVPKIPGIDSDRVKLCKNWAHAQALIEDAKEAKRITVIGAGYIGAELAEAYSTTGHDVTLIARHARVMRKYFDADFTDVIEQDYRDHGVQLALGETVESFTDSATGLTIKTDKNSYETDLAILCIGFRPNTDLLKGKVDMAPNGAIITDDYMRSSNPDIFAAGDSAAVHYNPTHQNAYIPLATNAVRQGILVGKNLVKPTVKYMGTQSSSGLALYDRTIVSTGLTLAAAKQQGLNAEQVIVEDNYRPEFMPSTEPVLMSLVFDPDTHRILGGALMSKYDVSQSANTLSVCIQNENTIDDLAMVDMLFQPNFDRPFNYLNILAQAAQAKVAQSVNA", "B4": "sacB S173A (Priestia megaterium, UniProt D5DC07); chain KGNDSKDFNNSYGISHITRDNMVKIPQQQNSDQFKVPAFDESTIKNIASAKGKNASGNTIDLDVWDSWPLQNADGTVATYHGYQIVFALAGDPKDSNDTSVYLFYKKAGDKSIDSWKNAGRVFKDSDKFVPNDPHLKNQTQEWAGSGTLTKDGKVRLFYTDYSGKQYGKQTLTTAQVNMSQPNDNTLKVDGVEDYKSIFDGDGKIYQTVQQFIDEGGYDTGDNHTLRDPHYIEDNGHKYLVFEANTGTEDGYQGEDSLYNRAYYGGNNPFFQSEKKKLLEGSNKEKASLANGALGIIELNDDYTLKKVMKPLITSNTVTDEIERANIFKKDGKWYLFTDSRGSKMTIDGIGQDDVYMLGYVSNTLTGKYKPLNDTGLVLHMDLDPNDKTFTYSHFAVPQTKGDNVVITSYMTNRGFYEDNHSTFAPSFLVNIDGSKTSVVKDRVLEQGQLTVDED", "B5": "enzyme (Phocaeicola vulgatus, UniProt A6KWY2); chain MNYNEIGKTGMRVSNLSFGASSLGGVFHDIREAEGIKAVYTAVENGMNFIDVSPYYGHYKAETVLGKALKEIPRDKYYLSTKVGRYGKDGVNTWDYSGKRATESVYESLDRLHIEYIDLINVHDVEFSDMNQVVNETLPALVELKKKGIVGHVGITDLQLENLKWIIDHSEPGTVESVLNFCHYCLNDEKLTDYLDYFESKNIGIINASPLSMGLLSQRGVPAWHPAPQSLVEACRKAVQHCLSKNYPIEKLAIQYSVSNPRIATTLFSSANPDNVLKNITYAEEPIDWNLVKEVQEIIGKQMRISWANS", "B6": "protein (Streptomyces coelicolor, UniProt Q9K464); chain MAAYLCAPAVIHGEHSVETREIVEEVRGRHPHAPWAPRIDGIAASTGIESRGWMLPLEAAVAPGGGGDLGAAREALVRDGFTEQDANRAIAALKAVPASQTVQERTAPAWEAVQAYGERAARGALQIAGLDVADVDCLITSNSTTPALPGLDVALANRLPLRGDTMLLPATQWACVAGTRSLALAADLVAADPDRVVLVVISEALSTTYQPADDTLESLIVRLLFADTAVAAVVTGRPRPESVLRLDAAWHHTLPGTRDLHRLETRADGTHFVMDRRGPRAVQETVTAMWEWLRVRYEDDPSSWHPDVLLAHPGGTRVLEYMEQTMPDEWPSGLLSYSRDSYTSGNRGGAAVFDILRRAHDAGQKTGSRAVLYAAAPGLTATALEGEWL", "B7": "enzyme (Triticum aestivum, UniProt A0A6J4BJM5); chain MPATQLPAGEAWDRRRELQAFDDTKAGVKGLVDAGVTALPPIFRHSPESLEGITSSNHVTGAIPTVDLSAARREDTVALVRRAAGTVGFFQVVNHGVPAELMAGMLEGVRRFNEGPAEAKQAIYSRDQARKVRFASNFDLFSSAAANWRDTLFFHLAPDPAPSQELPEAVRDVVTEYGKAVTKVALSVLELLSESLGLSSDHLRDMGCAENLNAVCQYYPPCPEPYLTWGTKRHTDPGFLTVLLQDGMGGLQVLVDHKTWVDVPPVPGAFIINIGDLLQLVSNDQFRSVEHRVLANKSKDTARVSVASFFNTDMERSTRLYGPITDGRNPPIYRSVTARDFIATFNRIGLDGRSLDHYRLDQHTPTPAVEGCE", "B8": "Sua5 (Pyrococcus abyssi, UniProt Q9UYB2); chain MTIIINVRERIEEWKIRIAAGFIREGKLVAFPTETVYGLGANALDENAVKRIFEAKGRPADNPLIIHIASFEQLEVLAKEIPEEAEMLAKRFWPGPLTLVLPKSEVVPRVITGGLDTVAVRMPAHEIALKLIELSERPIAAPSANISGKPSPTSAHHVAEDFYGKIECIIDGGETRIGVESTVIDLTEWPPVLLRPGGLPLEEIEKVIGEIRIHPAVYGKSVDTAKAPGMKYRHYAPSAEVIVVEGPRDKVRRKIEELIAKFKEEGKKVGVIGSGSYDADEVFYLGDTVEEIARNLFKALRHMDRTGVDVILAEGVEEKGLGLAVMNRLRKASGYRIIKV", "B9": "Tat (Mus musculus, UniProt Q8QZR1); chain WNVRPSDMSNKTFNPIRAIVDNMKVKPNPNKTVISLSIGDPTVFGNLPTDPEVTQAMKDALDSGKYNGYAPSIGYLSSREEVASYYHCPEAPLEAKDVILTSGCSQAIELCLAVLANPGQNILIPRPGFSLYRTLAESMGIEVKLYNLLPEKSWEIDLKQLESLIDEKTACLVVNNPSNPCGSVFSKRHLQKILAVAERQCVPILADEIYGDMVFSDCKYEPMATLSTNVPILSCGGLAKRWLVPGWRLGWILIHDRRDIFGNEIRDGLVKLSQRILGPCTIVQGALKSILQRTPQEFYQDTLSFLKSNADLCYGALSAIPGLQPVRPSGAMYLMVGIEMEHFPEFENDVEFTERLIAEQSVHCLPATCFEYPNFFRVVITVPEVMMLEACSRIQEFCEQHY", "note": "Protocols differ between the studies behind these lines. ± marks the error that the study gave.", "sequence of UniProt P27306 (whole entry, looked up)": "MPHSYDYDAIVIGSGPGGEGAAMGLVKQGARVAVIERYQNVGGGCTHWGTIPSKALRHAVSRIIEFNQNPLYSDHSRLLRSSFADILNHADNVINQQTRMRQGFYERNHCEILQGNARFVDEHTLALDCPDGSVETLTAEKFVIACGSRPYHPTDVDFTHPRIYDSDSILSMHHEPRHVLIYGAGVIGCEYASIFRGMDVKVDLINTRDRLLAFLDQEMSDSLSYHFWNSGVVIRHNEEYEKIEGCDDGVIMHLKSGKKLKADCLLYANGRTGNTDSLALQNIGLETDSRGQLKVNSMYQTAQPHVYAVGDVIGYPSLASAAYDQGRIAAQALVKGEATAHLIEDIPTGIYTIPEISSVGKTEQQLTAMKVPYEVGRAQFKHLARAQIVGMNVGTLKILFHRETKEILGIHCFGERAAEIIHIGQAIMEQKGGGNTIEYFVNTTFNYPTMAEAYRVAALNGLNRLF", "sequence of UniProt Q06520 (whole entry, looked up)": "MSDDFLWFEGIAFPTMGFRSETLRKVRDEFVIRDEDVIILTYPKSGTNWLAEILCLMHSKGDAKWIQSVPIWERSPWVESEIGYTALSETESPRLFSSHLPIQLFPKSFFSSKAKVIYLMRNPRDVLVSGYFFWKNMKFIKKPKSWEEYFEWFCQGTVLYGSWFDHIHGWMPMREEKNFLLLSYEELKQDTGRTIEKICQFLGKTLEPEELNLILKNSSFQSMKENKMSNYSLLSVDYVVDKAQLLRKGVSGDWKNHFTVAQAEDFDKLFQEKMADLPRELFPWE", "sequence of UniProt Q29437 (whole entry, looked up)": "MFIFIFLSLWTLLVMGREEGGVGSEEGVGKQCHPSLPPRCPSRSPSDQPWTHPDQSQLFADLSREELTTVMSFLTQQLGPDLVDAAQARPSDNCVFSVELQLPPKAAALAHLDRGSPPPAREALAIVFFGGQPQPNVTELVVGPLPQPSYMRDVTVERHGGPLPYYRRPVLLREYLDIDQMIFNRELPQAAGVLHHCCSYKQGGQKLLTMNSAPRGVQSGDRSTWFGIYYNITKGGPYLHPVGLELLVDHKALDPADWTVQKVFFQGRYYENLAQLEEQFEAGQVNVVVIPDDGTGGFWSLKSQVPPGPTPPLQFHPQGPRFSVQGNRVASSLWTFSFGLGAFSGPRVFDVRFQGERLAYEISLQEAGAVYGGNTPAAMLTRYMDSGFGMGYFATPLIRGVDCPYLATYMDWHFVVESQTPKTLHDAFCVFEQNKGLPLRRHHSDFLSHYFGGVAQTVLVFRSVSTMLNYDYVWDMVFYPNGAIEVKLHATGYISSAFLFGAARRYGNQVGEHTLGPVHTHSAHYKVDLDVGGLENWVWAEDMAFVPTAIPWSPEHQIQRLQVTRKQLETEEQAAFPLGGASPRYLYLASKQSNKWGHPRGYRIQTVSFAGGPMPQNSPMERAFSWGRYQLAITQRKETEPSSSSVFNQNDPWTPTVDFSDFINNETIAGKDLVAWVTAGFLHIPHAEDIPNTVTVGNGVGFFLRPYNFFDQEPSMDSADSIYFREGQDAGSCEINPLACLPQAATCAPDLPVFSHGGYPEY", "sequence of UniProt P45370 (whole entry, looked up)": "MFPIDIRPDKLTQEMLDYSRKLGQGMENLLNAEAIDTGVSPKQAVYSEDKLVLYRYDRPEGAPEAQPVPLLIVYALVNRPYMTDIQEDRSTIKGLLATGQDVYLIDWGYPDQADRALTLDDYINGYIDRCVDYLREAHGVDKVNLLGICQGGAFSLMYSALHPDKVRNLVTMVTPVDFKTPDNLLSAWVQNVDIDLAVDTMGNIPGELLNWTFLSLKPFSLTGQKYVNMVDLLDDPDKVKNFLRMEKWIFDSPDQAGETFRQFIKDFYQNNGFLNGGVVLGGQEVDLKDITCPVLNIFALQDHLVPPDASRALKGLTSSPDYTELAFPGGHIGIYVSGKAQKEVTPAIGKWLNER"}
{"Substance": "B1 (HCT R356D)", "substrate": "NCc1ccc(O)c(O)c1", "setting": "pH 8, pseudo-first-order, with: p-coumaroyl CoA", "kcat [s⁻¹]": "27.7 ± 1.1"}
{"Substance": "anthranilate synthase (Streptomyces venezuelae, UniProt O30589)", "substrate": "C=C(O[C@@H]1C=C(C(=O)O)C=C[C@H]1O)C(=O)O", "setting": "pH 7.5, 30 °C, with: glutamine saturating; MgCl2 12.5 mM", "kcat [s⁻¹]": "0.57 ± 0.02"}
{"Substance": "SULT2A1 (Homo sapiens, UniProt Q06520)", "substrate": "C[C@]12CC[C@H](O)CC1=CC[C@@H]1[C@@H]2CC[C@]2(C)C(=O)CC[C@@H]12", "setting": "pH 7.4, 25 °C", "kcat [s⁻¹]": 0.7}
{"Substance": "B2 (LYPLA2)", "substrate": "CN(C)c1ccc(/N=N/c2ccc(C(=O)NCCCn3cc(CCCCCCCCCCCCCCCC(=O)OC[C@H](NC(=O)c4cc5ccc(O)cc5oc4=O)C(=O)N4CCOCC4)nn3)cc2)cc1", "setting": "pH 7.4, 37 °C", "kcat [s⁻¹]": "0.044 ± 0.003"}
{"Substance": "protein (Allochromatium vinosum, UniProt P45370)", "substrate": "C#CC[C@@H](O)CC(=O)SCCNC(=O)CCNC(=O)[C@H](O)C(C)(C)COP(=O)(O)OP(=O)(O)OC[C@H]1O[C@@H](n2cnc3c(N)ncnc32)[C@H](O)[C@@H]1OP(=O)(O)O", "setting": "pH 7.8, 30 °C", "kcat [s⁻¹]": 2.99}
{"Substance": "B3 (enzyme A178R/D177A/M179H/P184R)", "substrate": "NC(=O)C1=CN([C@@H]2O[C@H](COP(=O)(O)OP(=O)(O)OC[C@H]3O[C@@H](n4cnc5c(N)ncnc54)[C@H](OP(=O)(O)O)[C@@H]3O)[C@@H](O)[C@H]2O)C=CC1", "setting": "pH 7.5, 37 °C, per site", "kcat [s⁻¹]": "123 ± 19"}
{"Substance": "B4 (sacB S173A)", "substrate": "OC[C@H]1O[C@@](CO)(O[C@H]2O[C@H](CO)[C@@H](O)[C@H](O)[C@H]2O)[C@@H](O)[C@@H]1O", "setting": "pH 6.6", "kcat [s⁻¹]": "3.8 ± 0.1"}
{"Substance": "B5 (enzyme)", "substrate": "NC(=O)c1ccc[n+]([C@@H]2O[C@H](COP(=O)(O)OP(=O)(O)OC[C@H]3O[C@@H](n4cnc5c(N)ncnc54)[C@H](OP(=O)(O)O)[C@@H]3O)[C@@H](O)[C@H]2O)c1", "setting": "pH 8, 30 °C, cofactor varied", "kcat [s⁻¹]": "22 ± 1"}
{"Substance": "B6 (protein)", "substrate": "CC(C)C(=O)CC(=O)SCCNC(=O)CCNC(=O)[C@H](O)C(C)(C)COP(=O)(O)OP(=O)(O)OC[C@H]1O[C@@H](n2cnc3c(N)ncnc32)[C@H](O)[C@@H]1OP(=O)(O)O", "setting": "pH 7.8, 30 °C, NaCl 150 mM, with: methylmalonyl-CoA 1.0 mM", "kcat [s⁻¹]": "0.216 ± 0.0243"}
{"Substance": "CYP2C9 (Homo sapiens, UniProt P11712)", "substrate": "Cc1ccc(Cl)c(Nc2ccccc2C(=O)O)c1Cl", "setting": "pH 7.4, Hill model, CYP2C9, metabolite, not purified", "kcat [s⁻¹]": 0.000213}
{"Substance": "B7 (enzyme)", "substrate": "O=C1[C@@H](O[C@@H]2O[C@H](CO)[C@@H](O)[C@H](O)[C@H]2O)Oc2ccccc2N1O", "setting": "pH 7.2, 30 °C", "kcat [s⁻¹]": 0.433}
{"Substance": "B8 (Sua5)", "substrate": "C[C@@H](O)[C@H](N)C(=O)O", "setting": "pH 8, 50 °C, KCl 35 mM, with: ATP, Mg2+, Mn2+, L-threonine 3–150 µM", "kcat [s⁻¹]": "0.054 ± 0.002"}
{"Substance": "Plasma amine oxidase (Bos taurus, UniProt Q29437)", "substrate": "CNCCOc1ccc2cc(CN)ccc2c1", "setting": "pH 7.2, 30 °C", "kcat [s⁻¹]": "0.212 ± 0.002"}
{"Substance": "sthA (Escherichia coli, UniProt P27306)", "substrate": "NC(=O)c1ccc[n+]([C@@H]2O[C@H](COP(=O)(O)OP(=O)(O)OC[C@H]3O[C@@H](n4cnc5c(N)ncnc54)[C@H](O)[C@@H]3O)[C@@H](O)[C@H]2O)c1", "setting": "pH 7.5, 37 °C, NaCl 150 mM, with: thio-NADH 200 µM", "kcat [s⁻¹]": "11 ± 2"}
{"Substance": "B9 (Tat)", "substrate": "CCCCC(=O)C(=O)O", "setting": "pH 7, 38 °C, with: PLP", "kcat [s⁻¹]": "1.83 ± 0.5"}
{"Substance": "KPR (Staphylococcus aureus, UniProt A0A0J9X283)", "substrate": "CC(C)(CO)C(=O)C(=O)O", "setting": "pH 7.5, 25 °C, substrate inhibition fit, with: NADPH 50 µM", "kcat [s⁻¹]": "16.6 ± 0.6"}
{"note": "Excerpt of the above:"}
{"Substance": "B9 (Tat)", "substrate": "CCCCC(=O)C(=O)O", "setting": "pH 7, 38 °C, with: PLP", "kcat [s⁻¹]": "1.83 ± 0.5"}
